Experimental data gathered from unrelated publications.
Every numbered part comes from another study and shows a few of its results, in no order.

Set 1 — technique: RNA Bind-n-Seq; form: RNA; matrix: in vitro; tested at: 90 pmol; setting: 4-mer, random 30-nt RNA, single round; added: 3 µM DMDA-PatA, 2 mM ADP, 2 mM phosphate; baseline: input library; reading: higher = stronger binding
Target: Eukaryotic initiation factor 4A-I (EIF4A1, Homo sapiens, UniProt P60842, residues 1-406, full length assumed)
Sequence of UniProt P60842 (whole entry, looked up): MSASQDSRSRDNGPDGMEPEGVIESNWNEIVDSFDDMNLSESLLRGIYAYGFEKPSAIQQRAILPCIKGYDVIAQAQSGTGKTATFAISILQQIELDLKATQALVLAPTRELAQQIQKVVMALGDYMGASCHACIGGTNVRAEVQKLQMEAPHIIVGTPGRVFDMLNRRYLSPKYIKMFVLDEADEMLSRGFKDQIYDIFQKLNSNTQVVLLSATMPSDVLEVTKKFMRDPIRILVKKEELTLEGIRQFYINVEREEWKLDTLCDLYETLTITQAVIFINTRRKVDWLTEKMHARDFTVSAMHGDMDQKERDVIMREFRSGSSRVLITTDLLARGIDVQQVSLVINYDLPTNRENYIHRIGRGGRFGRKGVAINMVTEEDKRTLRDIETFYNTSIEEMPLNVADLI
Sequence | 4-mer enrichment [fold]
AUCC | 0.618
UUAU | 1.07
UACU | 0.619
GGGC | 1.2
UCGA | 0.666
AUUU | 1.06
CCGG | 0.594
AAAA | 1.18
CACC | 0.65
CUCC | 0.595
CCCA | 0.726
CCGC | 0.689
CAGG | 0.879
ACCA | 0.682
UACA | 0.783
ACAG | 0.91
AGCG | 1.78
CCAU | 0.627
GCGA | 1.76
UCUC | 0.574
AUGA | 1.04
UUAC | 0.689
CCUA | 0.583
UGUC | 0.718
CGGG | 1.19

Set 2 — technique: aptamer microarray, sandwich; form: DNA with 2'F-ANA; matrix: in vitro; tested at: 200 nM; added: Cy3 exosite-II aptamer, 400 nM; reading: higher = stronger binding; sequence: GGTTGGTGTGGTTGG
Target: Prothrombin, mature alpha-thrombin (F2, Homo sapiens, UniProt P00734)
Setting: whole 15-mer aptamer, many near background
Modification | mean fluorescence intensity [a.u.]
2'F-ANA at 1 2 3 4 5 8 11 13 | 79.4
2'F-ANA at 1 3 4 5 7 9 11 12 | 105
2'F-ANA at 1 4 5 6 9 | 72.7
2'F-ANA at 1 3 4 6 8 9 10 14 15 | 49
2'F-ANA at 2 3 5 6 7 8 9 10 11 12 13 15 | 55.7
2'F-ANA at 2 3 4 7 12 14 15 | 420
2'F-ANA at 3 5 6 9 12 | 351
2'F-ANA at 2 6 7 10 11 12 13 14 15 | 113
2'F-ANA at 2 3 7 9 14 | 428
2'F-ANA at 1 3 5 6 10 12 13 | 45.9
2'F-ANA at 1 2 3 4 5 9 10 14 15 | 45
2'F-ANA at 1 2 3 6 8 12 14 15 | 94.1
2'F-ANA at 1 2 4 8 9 10 11 13 14 15 | 56.7
2'F-ANA at 4 9 10 12 15 | 106
2'F-ANA at 2 3 5 8 13 15 | 91.5
2'F-ANA at 4 8 10 11 12 14 | 57.7
2'F-ANA at 1 2 7 8 9 10 11 15 | 73.5
2'F-ANA at 2 4 6 9 12 13 15 | 299
2'F-ANA at 2 3 4 6 7 9 10 15 | 207
2'F-ANA at 1 4 11 12 14 15 | 57.7
2'F-ANA at 1 3 4 6 8 9 12 13 14 | 67.3
2'F-ANA at 2 4 6 7 8 10 11 12 13 14 15 | 80.8
2'F-ANA at 3 5 6 7 10 12 13 14 15 | 51.2
2'F-ANA at 2 6 8 10 11 14 | 101
2'F-ANA at 2 3 4 5 9 11 12 | 165

Set 3 — technique: RNA Bind-n-Seq; form: RNA; matrix: in vitro; tested at: 365 nM; baseline: no-protein control; reading: higher = stronger binding
Target: RNA binding protein fox-1 homolog 2, RRM domain, GST-SBP tag (RBFOX2, Homo sapiens, UniProt O43251-10, residues 100-194)
Setting: natural RNA segment, single round, ends assumed
Residues (chain): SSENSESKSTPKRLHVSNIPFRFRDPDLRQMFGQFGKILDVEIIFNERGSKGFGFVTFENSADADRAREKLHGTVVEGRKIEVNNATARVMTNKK
Sequence | RBNS enrichment (R)
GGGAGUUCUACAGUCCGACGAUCUGUCUGCUGCCACUGACAGUCCAGUGAAUCCUUUUCUGUCUGUUCCUAACAACUUUUAUUUGACACAUUAAAAAAUUUCUGACUGUCCUUAAGACAGUAGAGAUGUCUCUUGGAAUUCUCGGGUGCCAA | 0.262
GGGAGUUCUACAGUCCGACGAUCGCAUCACAGUCAGAGGUCAGCAGGAAGCUGAGUCAUUACCUUCUUGGUGACCUCCCCCACCAUCUUGUCUCACUUGGAAACCGUUGUCAGUUUAUUUACUAUGCAAUAGAUGGAAUUCUCGGGUGCCAA | 0.584
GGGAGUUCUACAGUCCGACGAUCCAAAGUCUGUGCCACAUUCCUCACAGCAGGUGUGACUCUUUAAGACCAUGAUAGUGGAGUAAGGGAAAGAGUGAGAUGUAGCGCUCUGGAUGCUUAAAAAGUAAGUGCUUUGGAAUUCUCGGGUGCCAA | 0.544
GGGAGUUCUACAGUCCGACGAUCAUUUUUAUAUAUAAAUAUUAUAUAAAUAAUGUAUAAAACAUUAAAAGUUAACUAUGUAAGAUAUUAUUUCUGAAACAAUUUAGCUAUAUCCACUAUGAUUAUAAACUGUGUGGAAUUCUCGGGUGCCAA | 1.67
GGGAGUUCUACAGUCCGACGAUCUUCGAUCUGCCUGUCCCUUUUUCCCCUGGGGUUUGACACACAGGCUCCUCUCAGCAUGAGGUGGAGCAGUGACCAGGUGGAGCAGUGACCAGGACGCCUCUGGCCCAGUGUGGAAUUCUCGGGUGCCAA | 10.3
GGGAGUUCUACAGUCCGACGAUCGAUUUUUGAAUGCACGUGCGCAGGAAGGGCUCCUCUUAGAGAAGCAGUCAAACUGUGAAGCACUAAGCUGACCCUGCUUCAAGCAAUUUUGUUUUUACAACUGUUCCUUUUGGAAUUCUCGGGUGCCAA | 2.2
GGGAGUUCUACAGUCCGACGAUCCCCUCAUUUUCCCCACUCUCAAUGUCCCAGUGUCCAGCGUGACUAAGGACACGGGCCCCCUUCCGUCCUCGGGCUCCCGGUCCCCUCCUAUUUAUGGGGUCUGACCAACUUGGAAUUCUCGGGUGCCAA | 1.23
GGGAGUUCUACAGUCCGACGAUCAACCUGACCGGAGCCCGCCAGUACUGGUUGGAGGGCAUGCUGCGGCAUGAGAUAGGCACCCACUACCUGCGGGGCGUGAACAACGCGCGCCAGCCGUGGCACAACGCGGAUGGAAUUCUCGGGUGCCAA | 0.326
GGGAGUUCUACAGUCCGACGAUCAGAAUAUCUUUCAGAAUAUGGUUUCACCAUGAAACAGGGGUGGUAGAUUUAUUCCCUUGUGUCAGGCCAAAGAAGUUCUUACAAAGUACAGUGGGUAGUGUCUAAAGCGAUGGAAUUCUCGGGUGCCAA | 0.42
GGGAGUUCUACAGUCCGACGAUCGCCUAAGCACUUCACUCACACACGCGAGUGGGCGAGUGCGUGUGCCUGUGCACACUUCACACACUGGGGCGGGACAUAGGCCGCAGGGACCCAGGGUCGCCUCAGGCAAAUGGAAUUCUCGGGUGCCAA | 0.194
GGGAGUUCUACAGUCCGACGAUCGUGGGGAGUCUGGGCUCGGUAGUAACUCUGGGAUAUUUCAAGGAUGGCUUUCUUUUUGACUGUGCUUGGGAGCAAAGUCAGAUGGGCAGCUGGGUGUGUGUUUAGAGCUCUGGAAUUCUCGGGUGCCAA | 2.56
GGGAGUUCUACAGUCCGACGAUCAUUUAAAAGUCACAAAGUCAUUUAUAAAAAAUGAAGUGAUUAAAUAUUGACCGAGUAUUGUUGAGUAUUGCUAGAGUAGCUAGUUAUCUGGUGAGACUGCUAAUUGAUUCUGGAAUUCUCGGGUGCCAA | 1.57

Set 4 — technique: RNA Bind-n-Seq; form: RNA; matrix: in vitro; tested at: 200 nM; setting: whole 134-nt RNA, ends assumed; added: 150 mM LiCl; baseline: input library; reading: higher = stronger binding; all molecules: 7-deaza-guanosine replaces G
Target: Fragile X messenger ribonucleoprotein 1, C-terminal low-complexity region (Fmr1, Mus musculus, UniProt P35922)
Sequence | log2 enrichment
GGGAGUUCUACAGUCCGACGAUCUAACUUGAGAGGAGGAUCUGAUGGAUAUGGCAGUGGACGUGGAUUUGGGGAUGGCUAUAAUGGGUAUGGAGGAGGACCUGGAGGUGGCAAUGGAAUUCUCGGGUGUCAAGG | 0.445
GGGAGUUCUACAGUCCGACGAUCCUGUGCUACACAUCGUAUGUACCGAAUCAAACCCCCCCAAACCCCCCCAAAUUUUUUUAAAAAAGUAUUAUGUUACGCCGUUCGGAUCUGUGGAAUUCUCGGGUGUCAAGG | 1.68
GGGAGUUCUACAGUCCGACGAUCACCAUGCAGGUGGGCAUCUUUGGGAAGUGGGGCAAGGGGGGGAUAGGGACGGGGGUAACACUUUGGGAACAGGUGGUCCCAGGUCGUUUCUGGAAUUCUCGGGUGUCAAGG | 0.679
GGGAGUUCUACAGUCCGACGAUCGCAGGAAGUAAAAACAAAUGGAAAUCCUUCGGAUAGUGGCAGGGGUGGGGGUUGCUAAGGAAAGGGUGGGAUGGGAGUGGGUAAAGAGUUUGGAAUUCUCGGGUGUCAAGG | 1.72
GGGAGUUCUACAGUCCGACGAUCUGGCCCUGGUGGCAUGCGGGGAGGAAGAGGUGGCCUCAUGGAUCGUGGUGGUCCCGGUGGAAUGUUCUGAGGUGGCCGUGGUGGAGACAGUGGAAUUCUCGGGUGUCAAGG | -0.344
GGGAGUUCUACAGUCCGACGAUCAAGUCCUGUGCUACACAUCGUAUGUACCGAAUCGGAAAAAGGUUUGGUUUUUUUGGAAAGUAUUAUGUUACGCCGUUCGGAUCUGCACUUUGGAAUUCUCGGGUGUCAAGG | -2.83
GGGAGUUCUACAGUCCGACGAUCGCAGGGAGUAAAAACAAAUGGAAAUGCUUCGGAUAGUGGCAGGGGUGGGGGUUGCUAAGGAAAGGGUGGGAUGGGAGUGGGUAAAGAGUUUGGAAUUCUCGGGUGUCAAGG | 1.35
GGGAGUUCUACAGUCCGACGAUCCUCAAGUCCUGUGCUACACAUCGUAUGUACCGAAUCGGGUGGGGUGGGUGGGGAAAGUAUUAUGUUACGCCGUUCGGAUCUGCACUUCCAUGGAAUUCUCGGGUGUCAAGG | 0.468
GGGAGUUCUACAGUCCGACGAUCGCAGGAAGUAAAAACAAAUGGAAAUGCUUCGGAAAAUGGCAGGGGUGGGGGUUGCUAAGGAAAGGGUGGGAUGGGAGUGGGUAAAGAGUUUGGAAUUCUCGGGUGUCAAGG | 1.24
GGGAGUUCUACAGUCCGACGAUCACCAUGCAGGUGGGCAUCUUUGGGCAGUGGGGCAAGGGGGGGAUAGGGAGGGGGGUAACACUUUGGGAACAGGUGGUCCCAGGUCGUUUCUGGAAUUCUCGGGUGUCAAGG | 1.38
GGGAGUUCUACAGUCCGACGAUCAAGUCCUGUGCUACACAUCGUAUGUACCGAAUCGGGGUUUGGGUUUGGGGUUUGGGGAAAGUAUUAUGUUACGCCGUUCGGAUCUGCACUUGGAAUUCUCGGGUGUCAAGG | -1.28

Set 5 — technique: protein binding microarray; form: double-stranded DNA, one strand shown; matrix: in vitro; tested at: not given; baseline: not given; reading: higher = stronger binding
Target: Histone acetyltransferase KAT6A, winged helix 1, GST fusion (KAT6A, Homo sapiens, UniProt Q92794, residues 1-85)
Setting: 8-mer, flanks averaged, mean of 2 arrays, mostly near background
Residues (chain): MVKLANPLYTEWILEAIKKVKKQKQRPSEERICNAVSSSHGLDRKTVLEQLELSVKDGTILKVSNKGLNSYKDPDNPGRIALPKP
Sequence | E-score
AAACCCCG | 0.177
ATTTGAAA | -0.0819
ATAGTCGC | 0.121
GAGAACGA | -0.0999
AGAGTTCC | -0.131
ATCACAGG | -0.211
TGTGTTAA | -0.00025
CTCCGCAC | 0.061
GCACACGA | 0.0118
CTGAATCC | -0.0471
CGAATGTC | -0.0895
CGAGCCAC | 0.0134
GATTAAGC | -0.0666
ATGGGATG | -0.22
ATAATCGC | 0.103
AGGAGTAC | -0.162
CCCCTTAG | -0.101
GTCCGCTA | 0.118
AATAGACA | -0.143
AAGATCAT | -0.107
GCCTAGGC | 0.0611
CAATTTAG | -0.175
AAAGCGGA | 0.224
GAATCGAA | -0.111
TAGGAAAA | -0.0635

A few entries again (set 1):
Sequence | 4-mer enrichment [fold]
AUCC | 0.618
UUAC | 0.689
AUUU | 1.06
UACA | 0.783
CCCA | 0.726
CCUA | 0.583
AAAA | 1.18
